Measured values gathered from unrelated publications.
Parts stem from different laboratories: compare values within a part only.

Sample 1
Target: PABPC1L2, full length, GST fusion (mouse, UniProt A0ABA7IW68)
Method: RNAcompete
Form: RNA
Matrix: in vitro
Concentration: 20 nM
Notes: 7-mer, probes averaged, single round
Relative to: mean of 7-mers
Reading: higher = stronger binding
Construct (chain): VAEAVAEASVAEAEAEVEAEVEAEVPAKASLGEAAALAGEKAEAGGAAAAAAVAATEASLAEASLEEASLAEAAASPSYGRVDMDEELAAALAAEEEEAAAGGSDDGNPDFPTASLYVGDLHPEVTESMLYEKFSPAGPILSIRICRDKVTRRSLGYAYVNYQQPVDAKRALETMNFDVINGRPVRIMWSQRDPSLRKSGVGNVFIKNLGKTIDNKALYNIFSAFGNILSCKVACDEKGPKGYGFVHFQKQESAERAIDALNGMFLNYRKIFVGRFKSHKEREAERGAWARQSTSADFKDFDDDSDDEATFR
Oligonucleotide | 7-mer Z-score
CCUUUUC | -0.436
GCUUGAC | -0.224
CGGGAAA | 0.715
UUCCUUU | -0.229
CUAGUAC | -0.144
AAGAAGA | 0.709
CUACCUC | -0.351
CACUUCC | -0.318
CGGUUCC | -0.18
UUAUAAG | -0.0826
UCGCAGU | -0.295
AAGCUUA | -0.175
AAAACCA | 3.49
CUGCCUU | -0.42
CGGCAAU | -0.117
CUCAUGG | -0.135
AUUGACG | -0.0283
GUUUAGA | -0.229
GAUGGGA | 0.0569
GGAUUCC | -0.157
UUUCUGA | -0.38
GCGCAUU | -0.229
AACUGCU | -0.0554
CCUGUCA | -0.266
AUGCGAC | 0.037

Sample 2
Target: Histone acetyltransferase KAT6A, both winged helices, GST fusion (KAT6A, Homo sapiens, UniProt Q92794, residues 1-181)
Method: protein binding microarray
Form: double-stranded DNA, one strand shown
Matrix: in vitro
Concentration: not given
Notes: 8-mer, flanks averaged, mean of 2 arrays, mostly near background
Relative to: not given
Reading: higher = stronger binding
Residues (chain): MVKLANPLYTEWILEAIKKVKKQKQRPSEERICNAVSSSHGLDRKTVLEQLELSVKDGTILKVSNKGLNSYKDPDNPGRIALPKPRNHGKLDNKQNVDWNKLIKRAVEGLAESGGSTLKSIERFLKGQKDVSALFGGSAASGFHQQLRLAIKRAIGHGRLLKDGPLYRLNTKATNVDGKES
Oligonucleotide | E-score
CGCCAGCG | 0.295
AATACACG | 0.105
CCCTCGCA | 0.0765
GGAGCCCC | -0.0712
AGATTACC | -0.111
CCATCAGC | -0.0348
CATCACAC | -0.0865
CAGAGGAC | -0.103
ACGTCGAT | -0.0276
CCGTATCC | 0.254
CACATCCC | -0.0337
GTCAACCA | -0.137
CCCAATGC | -0.14
AACCGTAT | 0.0796
CTGCCATA | 0.0106
ATCCGCGA | 0.254
AAAGTTTA | 0.00602
AGGGTTCC | -0.0845
ACTACTAG | -0.005
ATCGGCAC | 0.195
GCCAACTA | -0.0435
AACTTCTA | -0.202
CGAGGAAC | 0.165
GTCCGATA | 0.0751
CCCTCACA | -0.108

Sample 3
Target: RING finger protein unkempt homolog, zinc fingers 1-6, SBP tag (UNK, Homo sapiens, UniProt Q9C0B0, residues 30-357)
Chain of UniProt Q9C0B0 (30-357, looked up): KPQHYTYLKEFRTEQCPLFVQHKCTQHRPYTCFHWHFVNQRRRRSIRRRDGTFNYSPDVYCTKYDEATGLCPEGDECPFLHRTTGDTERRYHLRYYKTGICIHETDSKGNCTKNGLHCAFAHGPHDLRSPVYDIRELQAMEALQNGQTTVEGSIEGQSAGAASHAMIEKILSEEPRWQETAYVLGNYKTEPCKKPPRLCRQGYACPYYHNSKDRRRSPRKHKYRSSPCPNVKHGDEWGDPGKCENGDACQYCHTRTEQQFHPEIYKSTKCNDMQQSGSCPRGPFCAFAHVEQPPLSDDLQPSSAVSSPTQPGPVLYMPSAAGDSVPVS
Method: RNA Bind-n-Seq
Form: RNA
Matrix: in vitro
Concentration: 100 nM
Notes: RNA with constant flanks, vertebrate orthologous sites, ends assumed
Relative to: input RNA pool
Reading: higher = stronger binding
All sequences stand within: GGGAGUUCUACAGUCCGACGAUC … CAACAGAGGAUUGAGCAUCA
Oligonucleotide | bound/input enrichment [ratio]
CACAUCUGGUGAUAUUUGGCCUGGCCUCUCAGCUUAUGAUAAUAGUCCUAGAUCACCUCAUAGUCCUUCACCGAUUGCUACACCACCUAGUCAGAGUUCAUCUUGCUCUGAUGCCCCCAU | 0.93
GUGCUCGCCUUAGAGCAGUUCCCCCACCCACCCACCCCUUUUUUCCCUUGAUUUUGGUUUCAGGGCUGGGUGGGUGUGGCACACACUCUGAGGCCAGAGCUGUUUGGUUCGCCUUGUGCU | 0.183
CCGCUAAACCCCAUUUCUUCUGUUUCAUAGUGCAGAAGUAUUCUUUCUCAGUUAUAUUAUUAGUGGACUUGUUUUAAUUUUAGGGAAACUUCCAGUACAGAUACUGUGAGCUUACAUGGA | 2.29
CCACUUAAUCCCAUCUCUUCAGUUUCAUAGUGCUGCCGUAUUACCUUCAACUCUACCUUUAGUGAACUUAUUUUAAUUCUAGAGAAACUUCGAGUGUGGAUACUGUGAGCUAGAUGGAGA | 2.5
GAAGACUUUGUGUGCCAGAUUACCCCAAAAAACAUAAAGCUACUUUUUUACUUGCAUAUUUUUCAAAGUACCUGAAAAAUGGUUUUUCUCCUUUCUAAUGGUCAAAAGAAGGUACAUUUC | 0.487
UUCAUUACCUGAGCCGAGUGGAGGUGACGGAGUUUGAAGACAUCAAGUCAGGCUACAGAAUAGAUUUUGUAAGUGUUUAAUGGUUUGACGUAACGCUGUGGUGACUUUUUUUUUUUUUCC | 0.553
UUAAUAGUAUGUGUUCUUUUUCAAGGGUAGUUUUGUGCUAGACUGUGUUAGAUUUAAAAAUUAACAAAUUGGUUUCCAUUUGUUGUGUUUCUUUCAUUAUUGAAAAUAAAUAUAUCUUUG | 0.392
CCCUCUAAACCCCAUAUCUUCAGUUUCAUAGUGCAGAAAUAUUCUCUUUAAUCGUAUGAUUAGUGGACUUGUUUAAUCUUAGAGAAACUUUCAGAACUGUGAGCUUACAUGGAAAACAUA | 0.601
ACAAACAACGUAGGAUAUUUGUGCUAUUUAAAAGUGAGCUUUGCUUUUUCUGCUUUAAAGAGAAUACUUUUAUAUUGGGGUGCUUUAAAAGUGUGAAGGUGUGUGCUCCCAUAAUCCCAG | 0.472
UUACAGUCAUUGAUGGACUCUAUUUUUUUAUUAUUACUUGGACCUUGGUCGUUUUUAUACUAGCAAAAUGUCUUGUUUUAAUUUGUGGUUUUUUUUUUUGGUGGGGGGGAGUGAACUUGC | 2.73
UAGUGUUUAAGCCACCAACAGUUCUAAAAUGCUAUUUAUUUGUGUCUUUAAGUUUGUACAUAGUAAUACCCACCUCUUUGUUGCUUAAUUUGGCAGGGAGGCAGUGAGUUUGAAUUUUUG | 1.76

Sample 4
Target: RNA binding protein fox-1 homolog 2, RRM domain, GST-SBP tag (RBFOX2, Homo sapiens, UniProt O43251-10, residues 100-194)
Method: RNA Bind-n-Seq
Form: RNA
Matrix: in vitro
Concentration: 365 nM
Notes: natural RNA segment, single round, ends assumed
Relative to: no-protein control
Reading: higher = stronger binding
All sequences stand within: GGGAGUUCUACAGUCCGACGAUC … UGGAAUUCUCGGGUGCCAA
Construct (chain): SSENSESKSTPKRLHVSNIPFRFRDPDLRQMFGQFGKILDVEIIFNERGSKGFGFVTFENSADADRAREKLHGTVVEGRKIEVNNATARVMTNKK
Oligonucleotide | RBNS enrichment (R)
AGAAUUACCUAUUCUACGUGCCUUUUCUUAGGAAAAGAGAGUACUGGAUCAUGGUUUUCUUCCUUACUUACAGGUUGCUUCACACUGAGUGAUAAUUUAAAAUUGUUUCU | 0.28
UGGACAUCGUCUUAUCCCCAUAAUCCUUGCCAUCCCUACAAGGCCCAUCGCCACCACCUUUUCCCAGGUUUAUUGAGGUAUGAUUGACAUCCAGUAAAAUUCACCCUUUG | 0.676
GCCUCCUGCUGACCCCUGACAGCGUCCCGUGGCAUUUCUUUCAUGUCUGCAUAUUGCAUAGCCUUGUCCUCCUGUGUGCCUGAGCUCCUCCCUUUUCAAUAAGAUUAUUA | 1.02
UUAACUCGUUCAAAUAAUGUGGUCAUAACUUACACAUUUAAGCGUAUAUUGGAAUUGUUAACUCAAAUUGUAGUCAAAAAAAAAAAAUCAGGAAUUUUGUCCGUGUAUAA | 1.61
UACCAUAGAAAAAUGUAUAAAAAUUAUCAAAAAGCUAAUGUGCAGGGAUAUUGCCUUAUUUGUCUGUAAAAAAUGGAGCUCAGUAACAUAACUGCUUCUUGGAGCUUUGG | 0.84
UCUGCAUCCCCCAUCACCUCAUAGAAGACUCUUUGUUGAUCAUUGUAUGUUAAUAAUGUAUAAAAUGGCUAUCUUGUAAGCGUGCUGUCCUGGUACUAGUGUAGCGACUU | 0.889
GUGUUCUGUGUCCGACGCUGAGUGACCCUUUGUGAGAAAGACGUUGCCUUUGCAGUACAUGAAACAUCCCAUUCUUUGUUCUUGAUGGGAUAGGGGUCGUUAUUGUAGCA | 5.41
GGGUUCUUUCCCCUCCCUCUCAUGAGAGUAAAGUCCCCAGCAGAUUUGAGUGAGUCAGGGGAAACACCCUCUUCCUACUUACACUUGUCUCGCCCACCCCCCAUUCUCUC | 0.463
AGAGCCACGCUGCUCAGUCUGUUUCGUCAGCCGACUCAGGUUAUUUUCAGGGAAGGCAUGGAGGCAUAGUUUGGUUAGUUUCAUCACUAGGAUGUAUAAGGUGACGACAC | 2.94
AUGAUAUCCGUAUUUAAAAUGUAGUUAGUUAUAUUUAAUGACCUCAUUCCUAAGUUCCUUUUUCGUUAAUGUAGCUUUCAUUUCUGUUAUUGCUGUUUGAAUAAUAUGAU | 0.571
UAAAUCAUAAUGUGUAAUAAUUGUGUAUCAUUUUGUCUACAAUAAAACGUUUAGUAUUUGCAAUGGGUUUUCUGAGCUGGAAGCACCGUACUUAGAUGGGCUCAUUGAGA | 0.278
GCUGUCACCGUCUCCUCUUAAGCUCACUCGGGCCAGGCCCUGAUCUGCGCUGUGGCUGUCCCUGGACGUGCUGCAGCCCUCCUGUCCCUUCCCCCCAGUCAGUAUUACCC | 0.316

Sample 5
Target: Ras GTPase-activating protein-binding protein 1, C-terminal RGG region (G3BP1, Homo sapiens, UniProt Q13283)
Chain of UniProt Q13283 (whole entry, looked up): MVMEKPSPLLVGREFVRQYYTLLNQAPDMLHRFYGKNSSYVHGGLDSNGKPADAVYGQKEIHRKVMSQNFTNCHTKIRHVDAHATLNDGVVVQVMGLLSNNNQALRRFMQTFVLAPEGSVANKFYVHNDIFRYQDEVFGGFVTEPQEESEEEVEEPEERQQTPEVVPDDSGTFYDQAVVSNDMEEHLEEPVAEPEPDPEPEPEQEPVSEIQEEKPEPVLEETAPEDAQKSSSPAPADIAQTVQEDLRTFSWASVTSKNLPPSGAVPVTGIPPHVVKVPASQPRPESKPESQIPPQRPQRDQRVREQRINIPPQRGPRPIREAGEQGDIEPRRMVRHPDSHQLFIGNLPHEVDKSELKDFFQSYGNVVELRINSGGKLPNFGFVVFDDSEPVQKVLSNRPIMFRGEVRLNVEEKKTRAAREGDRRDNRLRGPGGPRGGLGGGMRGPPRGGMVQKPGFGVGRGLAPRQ
Method: RNA Bind-n-Seq
Form: RNA
Matrix: in vitro
Concentration: 1 µM
Notes: whole 134-nt RNA, ends assumed
Added: 150 mM KCl
Relative to: input library
Reading: higher = stronger binding
All sequences stand within: GGGAGUUCUACAGUCCGACGAUC … UGGAAUUCUCGGGUGUCAAGG
Oligonucleotide | log2 enrichment
UCCUGUGCUACACAUCGUAUGUACCGAAUCGGGGAAAAAAGGGGAAAAAAGGAAAAAAGGAAAGUAUUAUGUUACGCCGUUCGGAUCUGC | -1.2
UCAAGUCCUGUGCUACACAUCGUAUGUACCGAAUCGGUUUUUGGUGGUUUUUGGAAAGUAUUAUGUUACGCCGUUCGGAUCUGCACUUCC | -1.09
CUGUGCUACACAUCGUAUGUACCGAAUCGGGGUUUGGGGUUUUUUUGGGGAAAAAAAGGGGAAAGUAUUAUGUUACGCCGUUCGGAUCUG | 0.364
UCCUGUGCUACACAUCGUAUGUACCGAAUCGGGGUUUUUGGGUUUUUGGGUUUUUGGGGAAAGUAUUAUGUUACGCCGUUCGGAUCUGCA | 0.312
CUCAACGUUGACAGUAAUGAACAAGGCUCCUAUGUAGUGGCCAUGGAAACCUUUACCAACUUAGGACCCAUUGUCGAUAUGUGCGUGGUG | -0.779
UGGCCCUGGUGGCAUGCGGGGAGGAAGAGGUGGCCUCAUGGAUCGUGGUGGUCCCGGUGGAAUGUUCAGAGGUGGACGUGGUGGAGACAG | 3.67
UUCCUCAAGUCCUGUGCUACACAUCGUAUGUACCGAAUCGGGCGGCGGCGGAAAGUAUUAUGUUACGCCGUUCGGAUCUGCACUUCCAGC | -0.727
UCCUGUGCUACACAUCGUAUGUACCGAAUCAAACCCCCCCAAACCCAAACCCCCCCAAAAAAGUAUUAUGUUACGCCGUUCGGAUCUGCA | -0.662
ACCAUGCAGGUGGGCAUCUUUGGGAAGUGGGGCAAGGGGGGGAUAGGGAGGGGGGUAACAAAAUGGGAACAGGUGGUCCCAGGUCGUUUC | -1.41
UGGAUAUGGUUAUAGAAGAAGUGGCCGAGAUAAAUAUGGCCCUCCUACUCGCACAGAGUACAGACUUAUUGUGGAGAAUUUGUCAAGUCG | -1.38
AGUCCUGUGCUACACAUCGUAUGUACCGAAUCGGAAAGGAAAAAAAGGUUUUUUUGGAAAGUAUUAUGUUACGCCGUUCGGAUCUGCACU | -2.2
UGUACUCGGAAGUUUCACUUACCAUCGACCACUCUCUGAUUCCGGAGGAGAGGCUCUCGCCCACCCCAUCCAUGCAGGAUGGGCUCGACC | -0.555
UGGCCCUGGUGGCAUGCGGGGAGGAAGAGGUGGCCUCAUGGAUCGUGGUGGUCCCGGUGGAAUGUUCUGAGGUGGCCGUGGUGGAGACAG | 3.64
GUCCUGUGCUACACAUCGUAUGUACCGAAUCGGGAAAAAAAGGGAAAGGGUUUUUGGGAAAGUAUUAUGUUACGCCGUUCGGAUCUGCAC | -0.127

Some of these lines once more (sample 2):
Oligonucleotide | E-score
GTCCGATA | 0.0751
ATCCGCGA | 0.254
AAAGTTTA | 0.00602
CAGAGGAC | -0.103
CCGTATCC | 0.254
CCATCAGC | -0.0348
